Measurements of several laboratories.
Numbered parts are unrelated; each lists some results of a single study. Values joined by “and” are separate records of one study, mostly repeats; a detail may differ.
Chain of UniProt P49137 (whole entry, looked up): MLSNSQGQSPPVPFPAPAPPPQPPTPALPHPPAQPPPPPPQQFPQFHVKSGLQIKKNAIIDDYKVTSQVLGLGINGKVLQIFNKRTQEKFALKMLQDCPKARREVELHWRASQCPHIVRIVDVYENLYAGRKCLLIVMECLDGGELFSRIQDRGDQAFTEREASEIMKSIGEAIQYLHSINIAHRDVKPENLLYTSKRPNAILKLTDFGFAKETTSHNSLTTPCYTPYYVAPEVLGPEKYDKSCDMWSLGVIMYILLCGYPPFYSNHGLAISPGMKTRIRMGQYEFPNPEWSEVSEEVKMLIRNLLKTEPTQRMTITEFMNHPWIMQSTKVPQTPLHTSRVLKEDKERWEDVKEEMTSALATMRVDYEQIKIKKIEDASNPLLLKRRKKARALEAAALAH
Chain of UniProt Q96J92 (whole entry, looked up): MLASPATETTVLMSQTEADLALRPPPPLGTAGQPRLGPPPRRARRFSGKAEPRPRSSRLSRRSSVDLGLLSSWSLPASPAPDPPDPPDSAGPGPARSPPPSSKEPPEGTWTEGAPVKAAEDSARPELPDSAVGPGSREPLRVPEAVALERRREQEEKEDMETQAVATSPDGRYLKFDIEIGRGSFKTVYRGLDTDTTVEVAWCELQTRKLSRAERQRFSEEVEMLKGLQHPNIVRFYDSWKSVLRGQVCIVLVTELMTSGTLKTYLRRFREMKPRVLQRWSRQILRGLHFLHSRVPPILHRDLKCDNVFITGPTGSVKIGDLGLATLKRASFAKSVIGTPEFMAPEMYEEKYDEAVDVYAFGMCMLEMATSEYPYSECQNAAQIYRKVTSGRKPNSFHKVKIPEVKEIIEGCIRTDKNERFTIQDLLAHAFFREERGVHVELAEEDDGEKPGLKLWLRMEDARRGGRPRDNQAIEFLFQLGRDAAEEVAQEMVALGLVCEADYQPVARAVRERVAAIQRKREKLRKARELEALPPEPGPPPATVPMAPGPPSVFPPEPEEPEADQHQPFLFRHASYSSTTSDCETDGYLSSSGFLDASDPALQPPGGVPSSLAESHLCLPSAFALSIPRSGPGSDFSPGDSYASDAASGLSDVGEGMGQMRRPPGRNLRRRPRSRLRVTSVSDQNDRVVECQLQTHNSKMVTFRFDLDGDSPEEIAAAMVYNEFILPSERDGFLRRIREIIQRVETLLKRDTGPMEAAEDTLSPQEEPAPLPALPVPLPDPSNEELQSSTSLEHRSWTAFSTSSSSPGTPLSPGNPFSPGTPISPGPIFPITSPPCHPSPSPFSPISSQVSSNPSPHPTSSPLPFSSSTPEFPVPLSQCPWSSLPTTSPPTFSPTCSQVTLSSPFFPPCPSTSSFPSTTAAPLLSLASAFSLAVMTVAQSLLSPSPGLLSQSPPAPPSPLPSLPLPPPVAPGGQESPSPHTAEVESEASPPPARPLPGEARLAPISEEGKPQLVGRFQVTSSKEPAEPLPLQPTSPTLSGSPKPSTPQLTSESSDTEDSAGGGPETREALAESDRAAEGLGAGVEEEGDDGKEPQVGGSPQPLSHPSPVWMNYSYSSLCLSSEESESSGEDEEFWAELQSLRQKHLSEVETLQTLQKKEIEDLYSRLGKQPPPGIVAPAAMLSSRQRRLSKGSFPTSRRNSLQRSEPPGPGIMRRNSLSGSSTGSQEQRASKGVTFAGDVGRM
Chain of UniProt P29376 (whole entry, looked up): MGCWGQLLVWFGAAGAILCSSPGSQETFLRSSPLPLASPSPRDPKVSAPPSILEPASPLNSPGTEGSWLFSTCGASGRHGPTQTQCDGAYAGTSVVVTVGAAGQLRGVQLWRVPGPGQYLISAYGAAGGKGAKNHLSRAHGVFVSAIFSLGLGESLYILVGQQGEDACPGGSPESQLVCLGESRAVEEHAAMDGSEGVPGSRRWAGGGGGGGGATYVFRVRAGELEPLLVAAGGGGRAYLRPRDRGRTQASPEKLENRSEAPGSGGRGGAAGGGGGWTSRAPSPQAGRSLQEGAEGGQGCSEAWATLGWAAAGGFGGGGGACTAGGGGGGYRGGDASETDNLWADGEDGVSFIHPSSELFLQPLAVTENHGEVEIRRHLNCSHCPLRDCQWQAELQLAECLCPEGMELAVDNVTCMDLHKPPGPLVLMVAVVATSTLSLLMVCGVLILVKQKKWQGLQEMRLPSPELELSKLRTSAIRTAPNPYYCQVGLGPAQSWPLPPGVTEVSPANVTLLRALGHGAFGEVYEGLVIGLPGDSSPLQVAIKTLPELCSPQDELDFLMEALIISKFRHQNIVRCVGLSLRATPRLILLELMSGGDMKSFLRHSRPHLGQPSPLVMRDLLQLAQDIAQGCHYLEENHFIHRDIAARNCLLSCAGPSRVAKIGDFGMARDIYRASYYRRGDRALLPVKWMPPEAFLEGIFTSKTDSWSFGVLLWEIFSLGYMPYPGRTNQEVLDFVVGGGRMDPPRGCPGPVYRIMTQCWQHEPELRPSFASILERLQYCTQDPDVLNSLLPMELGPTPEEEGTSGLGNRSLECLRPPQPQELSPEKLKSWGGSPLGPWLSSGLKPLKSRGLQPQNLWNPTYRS
Chain of UniProt Q13705 (whole entry, looked up): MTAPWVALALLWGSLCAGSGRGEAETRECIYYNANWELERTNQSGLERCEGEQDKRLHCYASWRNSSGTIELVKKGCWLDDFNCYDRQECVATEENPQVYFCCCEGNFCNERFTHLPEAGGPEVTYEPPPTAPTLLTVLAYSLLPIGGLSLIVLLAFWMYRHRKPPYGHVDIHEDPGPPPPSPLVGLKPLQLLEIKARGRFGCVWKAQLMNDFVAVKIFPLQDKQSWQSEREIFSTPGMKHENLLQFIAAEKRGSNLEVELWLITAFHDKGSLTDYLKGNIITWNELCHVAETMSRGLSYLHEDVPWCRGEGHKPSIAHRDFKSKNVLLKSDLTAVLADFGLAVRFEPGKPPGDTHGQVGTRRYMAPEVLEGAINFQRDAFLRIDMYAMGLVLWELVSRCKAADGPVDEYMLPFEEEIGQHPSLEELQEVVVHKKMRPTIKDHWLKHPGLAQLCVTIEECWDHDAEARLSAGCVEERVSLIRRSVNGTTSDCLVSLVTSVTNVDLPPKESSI
Chain of UniProt Q13153 (whole entry, looked up): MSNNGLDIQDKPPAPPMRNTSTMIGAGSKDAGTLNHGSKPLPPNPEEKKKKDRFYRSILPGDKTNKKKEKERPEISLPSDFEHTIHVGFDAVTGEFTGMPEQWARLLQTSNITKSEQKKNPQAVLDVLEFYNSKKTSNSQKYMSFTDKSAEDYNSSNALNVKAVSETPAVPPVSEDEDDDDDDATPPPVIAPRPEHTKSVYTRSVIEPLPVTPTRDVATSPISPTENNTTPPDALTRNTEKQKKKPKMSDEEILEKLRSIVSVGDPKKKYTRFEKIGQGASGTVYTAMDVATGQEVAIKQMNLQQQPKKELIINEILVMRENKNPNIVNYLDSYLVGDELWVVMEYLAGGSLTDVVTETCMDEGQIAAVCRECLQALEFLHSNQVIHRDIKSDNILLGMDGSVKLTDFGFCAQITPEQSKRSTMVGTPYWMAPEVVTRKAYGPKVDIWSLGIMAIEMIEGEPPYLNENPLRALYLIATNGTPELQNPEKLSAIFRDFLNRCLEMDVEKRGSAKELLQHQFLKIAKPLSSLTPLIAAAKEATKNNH
Chain of UniProt Q96RR4 (whole entry, looked up): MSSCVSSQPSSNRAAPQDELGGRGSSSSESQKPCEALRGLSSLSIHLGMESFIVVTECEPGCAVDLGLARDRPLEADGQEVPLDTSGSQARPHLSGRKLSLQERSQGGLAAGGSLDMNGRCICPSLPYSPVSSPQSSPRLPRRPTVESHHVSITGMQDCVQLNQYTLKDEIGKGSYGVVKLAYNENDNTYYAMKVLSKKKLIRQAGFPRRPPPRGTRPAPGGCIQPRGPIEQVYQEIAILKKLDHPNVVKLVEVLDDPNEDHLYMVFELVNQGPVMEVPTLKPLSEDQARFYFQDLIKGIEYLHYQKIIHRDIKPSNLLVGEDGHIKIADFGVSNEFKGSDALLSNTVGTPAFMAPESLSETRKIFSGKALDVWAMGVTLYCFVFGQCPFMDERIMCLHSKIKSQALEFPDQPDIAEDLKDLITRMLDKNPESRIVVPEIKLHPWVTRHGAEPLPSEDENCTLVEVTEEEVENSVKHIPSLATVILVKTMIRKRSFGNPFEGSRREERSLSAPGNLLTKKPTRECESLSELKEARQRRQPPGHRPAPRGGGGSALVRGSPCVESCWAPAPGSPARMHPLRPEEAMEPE

Block 1 — cell line: A-375; tested at: 100 µM; time: 60 h
Structure (SMILES)	viability [%]
C[C@@H](O[C@H]1OCCN(Cc2nc(O)n(P(=O)(O)O)n2)[C@H]1c1ccc(F)cc1)c1cc(C(F)(F)F)cc(C(F)(F)F)c1	5.14
NC[C@H]1O[C@H](O[C@H]2[C@H](O)[C@@H](O[C@H]3O[C@H](CO)[C@@H](O)[C@H](N)[C@H]3O)[C@H](N)C[C@@H]2N)[C@H](N)C[C@@H]1O	105
Cc1nccn1CC1CCc2c(c3ccccc3n2C)C1=O (centres unmarked)	11.8

Block 2 — cell line: mouse MPNST tumor cells; technique: high-content nuclear imaging; measured: cell number; tested at: 10 µM; time: 12 h; setting: mean of 2 replicates; reference: plate mean; direction: higher = more cells
SMILES	nuclei count
CN(Cc1cnc2nc(N)nc(N)c2n1)c1ccc(C(=O)N[C@@H](CCC(=O)O)C(=O)O)cc1 (racemic)	-1.36 z-score
CCOC(=O)C1CSC(Cc2ccc(OCc3ccc([N+](=O)[O-])cc3)cc2)N1 (centres unmarked)	-0.317 z-score
O=C(O)COCCN1CCN(C(c2ccccc2)c2ccc(Cl)cc2)CC1 (centres unmarked)	-1.28 z-score
CCOC(=O)C(C)(C)Oc1ccc(Cl)cc1	0.905 z-score and 0.632 z-score
NCCCC(O)(P(=O)(O)O)P(=O)(O)O	0.242 z-score
Nc1nc2c(c(N3CC[C@@H](N)C3)n1)CCCc1ccccc1-2	-0.41 z-score

Block 3 — read-out: enzyme activity; mode: inhibitor; tested at: 0.5 µM; reference: control
Target: Mitogen-activated protein kinase kinase kinase kinase 5 (MAP4K5, Homo sapiens, UniProt Q9Y4K4)
Chain of UniProt Q9Y4K4 (whole entry, looked up): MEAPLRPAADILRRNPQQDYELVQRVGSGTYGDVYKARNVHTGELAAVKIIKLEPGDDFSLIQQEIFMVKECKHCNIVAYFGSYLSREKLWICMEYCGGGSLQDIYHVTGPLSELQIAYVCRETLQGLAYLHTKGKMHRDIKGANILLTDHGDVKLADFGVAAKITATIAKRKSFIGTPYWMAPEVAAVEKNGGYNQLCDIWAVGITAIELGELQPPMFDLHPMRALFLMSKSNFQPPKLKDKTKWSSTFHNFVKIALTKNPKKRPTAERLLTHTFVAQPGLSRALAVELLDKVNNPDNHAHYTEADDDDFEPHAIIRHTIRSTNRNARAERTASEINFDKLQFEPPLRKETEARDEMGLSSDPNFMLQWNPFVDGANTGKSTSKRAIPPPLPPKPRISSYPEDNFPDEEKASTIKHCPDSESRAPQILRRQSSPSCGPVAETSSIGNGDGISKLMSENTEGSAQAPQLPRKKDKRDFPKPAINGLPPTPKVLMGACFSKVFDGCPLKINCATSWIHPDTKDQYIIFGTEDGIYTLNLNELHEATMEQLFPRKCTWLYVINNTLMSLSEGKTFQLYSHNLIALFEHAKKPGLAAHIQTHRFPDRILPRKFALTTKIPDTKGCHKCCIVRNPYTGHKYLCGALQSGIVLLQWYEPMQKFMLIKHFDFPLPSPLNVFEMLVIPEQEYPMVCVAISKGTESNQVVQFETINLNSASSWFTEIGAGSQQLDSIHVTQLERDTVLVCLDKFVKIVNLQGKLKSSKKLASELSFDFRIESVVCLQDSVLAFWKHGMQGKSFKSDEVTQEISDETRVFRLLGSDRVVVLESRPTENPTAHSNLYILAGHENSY
SMILES	remaining activity [%]
Cc1ccc(Nc2nccc(N(C)c3ccc4c(C)n(C)nc4c3)n2)cc1S(N)(=O)=O	30.3
Nc1[nH]nc2nc3ccccc3nc12	96.8
NCCNc1ncc(C(N)=O)c(Nc2cccc(C(F)(F)F)c2)n1	65.1
O=c1c2ccccc2[nH]c(=S)n1CCN1CCC(=C(c2ccc(F)cc2)c2ccc(F)cc2)CC1	98.8
N#CC(C#N)=C(N)/C(C#N)=C/c1ccc(O)cc1	99.6
O=C1NC(=O)C(c2cn(CCCn3ccnc3)c3ccccc23)=C1Nc1ccccc1	66.5
COc1cc2ncnc(Nc3ccc(Oc4ccccc4)cc3)c2cc1OC	70.6
COc1ccc(OC)c2c(=S)c3ccccc3[nH]c12	95.2
COc1cc2ncnc(Nc3ccc(F)c(Cl)c3)c2cc1OCCCN1CCOCC1	80
CC(C)[C@H](CO)Nc1nc(Nc2cc(N)cc(Cl)c2)c2ncn(C(C)C)c2n1	82.5
CN(C)c1ccc(C=C2C(=O)Nc3ccccc32)cc1	84.5
C#Cc1cccc(Nc2ncnc3cc(OCCOC)c(OCCOC)cc23)c1	95.6
O=C1NC(=O)C(c2cn(CCCO)c3ncccc23)=C1c1cnccn1	37.5
Cc1nc(-c2ccccc2)c(-c2ccncc2)o1	96.2
Oc1ccc(-c2nc(-c3ccncc3)c(-c3ccc(F)cc3)[nH]2)cc1	96.6
CNC(=O)c1cc(Oc2ccc(NC(=O)Nc3ccc(Cl)c(C(F)(F)F)c3)cc2)ccn1	57

Block 4 — technique: competition with immobilised ligand; tested at: 1 µM
Structure (SMILES): CNC(=O)Nc1ccc2c(c1)CC[C@@]21OC(=O)N(CC(=O)N(Cc2ccc(F)cc2)[C@@H](C)C(F)(F)F)C1=O
target	test	remaining binding [%]
Receptor-type tyrosine-protein kinase FLT3 (FLT3, Homo sapiens, UniProt P36888, D835V)	cell-free assay	76
Receptor-type tyrosine-protein kinase FLT3 (FLT3, Homo sapiens, UniProt P36888)	cell-free assay	100
Calcium/calmodulin-dependent protein kinase type II subunit beta (CAMK2B, Homo sapiens, UniProt Q13554)	cell-free assay	81
Leukocyte tyrosine kinase receptor (LTK, Homo sapiens, UniProt P29376)	cell-free assay	100
Calcium/calmodulin-dependent protein kinase kinase 2 (CAMKK2, Homo sapiens, UniProt Q96RR4)	cell-free assay	76
Proto-oncogene tyrosine-protein kinase receptor Ret (RET, Homo sapiens, UniProt P07949, M918T)	cell-free assay	95
MAP kinase-activated protein kinase 2 (MAPKAPK2, Homo sapiens, UniProt P49137)	cell-free assay	87
Serine/threonine-protein kinase PAK 1 (PAK1, Homo sapiens, UniProt Q13153)	cell-free assay	88
Activin receptor type-2B (ACVR2B, Homo sapiens, UniProt Q13705)	binding	96
Serine/threonine-protein kinase WNK4 (WNK4, Homo sapiens, UniProt Q96J92)	cell-free assay	73

Repeated from above (block 3):
SMILES	remaining activity [%]
O=C1NC(=O)C(c2cn(CCCn3ccnc3)c3ccccc23)=C1Nc1ccccc1	66.5
Cc1ccc(Nc2nccc(N(C)c3ccc4c(C)n(C)nc4c3)n2)cc1S(N)(=O)=O	30.3
CC(C)[C@H](CO)Nc1nc(Nc2cc(N)cc(Cl)c2)c2ncn(C(C)C)c2n1	82.5
